Published values pooled from the literature.
Protocols differ between the studies behind these lines. Several values in a cell are separate wells, animals, samples, runs or records. ± gives the spread as reported.

| Structure (SMILES) | tested on | assay | system | conditions | scale | measurement | result |
| --- | --- | --- | --- | --- | --- | --- | --- |
| COc1cc2c(NC3CCN(C(C)C)CC3)cc(N3CCOCC3)nc2cc1OCCCN1CCCC1 |  | TMT quantitative proteomics, measured: MFGE8 | 5xFAD mice, hippocampus | dose not given |  | normalised protein abundance | -0.203 and 0.0907 and -0.0367 and 0.126 and 0.155 and 0.397 and 0.0753 and 0.0953 |
| COc1ccc(C(=O)CCc2cc(C(CCc3ccc(O)cc3OC)c3ccc(O)cc3)c(O)cc2OC)cc1 (racemic) |  |  | human blood | 1 µM, with: A23187 |  | PGE2 level | 39 ± 8 pg/mL |
| Cc1ccc(N(O)/N=N/c2ccc(S(=O)(=O)Nc3nccs3)cc2)cc1 |  | carrageenan-induced paw edema | Wistar rat | oral, 100 mg/kg, 1 h after carrageenan, with: carrageenan 1% subplantar | higher = more edema | paw edema volume | 5.78 ± 0.87 a.u. |
| O=C(N[C@@H](Cc1coc2ccccc12)B(O)O)[C@@H]1C[C@H]2CC[C@@H]1O2 |  | tumour growth | U266B1, mouse, U266B1 multiple myeloma xenograft | oral, 1 mg/kg twice weekly |  | T/C | -57% |
| COC1OC(C)C(O)C(OC2OC(C)C(O)C(OS(=O)(=O)O)C2OS(=O)(=O)O)C1OS(=O)(=O)O (stereo not shown) |  |  | human plasma | 128 µg/mL | reference: control | thrombin time prolongation | 1 fold |
| NC[C@@H](C(=O)Nc1ccc(-c2cn[nH]c2)cc1)c1ccccc1 |  | tonometry | NZW rabbit, magnetic bead-induced ocular hypertension | ocular, 0.1%, 0 h |  | IOP | 36.4 mmHg |
| CC(C)(C)NCC(SS(=O)(=O)O)c1ccccc1 (stereo not shown) |  |  | Swiss Webster mice, Schistosoma mansoni-infected | 100 mg/kg single dose on day 42 post-infection, perfusion day 56 post-infection |  | spleen weight | 0.8 g |
| COC1OC(C)C(O)C(OC2OC(C)C(O)C(OC3OC(C)C(O)C(OC4OC(C)C(O)C(OS(=O)(=O)O)C4OS(=O)(=O)O)C3OS(=O)(=O)O)C2OS(=O)(=O)O)C1OS(=O)(=O)O (stereo not shown) |  |  | human plasma | 128 µg/mL |  | thrombin time | 10.6 ± 1 s |
| COc1cc(N2CCN(C(=O)C3CCCN3)CC2)ccc1Nc1ncc(Cl)c(Nc2ccccc2P(C)(C)=O)n1 (stereo not shown) |  |  | nude mice, NCI-H3122 xenograft | oral, 25 mg/kg every two days, day 16 |  | tumour volume | 399 mm3 and 686 mm3 and 454 mm3 and 474 mm3 and 126 mm3 |
| COC1OC(C)C(OC2OC(C)C(OS(=O)(=O)O)C(OC3OC(C)C(OC4OC(C)C(OS(=O)(=O)O)C(OC5OC(C)C(OS(=O)(=O)O)C(OS(=O)(=O)O)C5OS(=O)(=O)O)C4OS(=O)(=O)O)C(OS(=O)(=O)O)C3OS(=O)(=O)O)C2OS(=O)(=O)O)C(OS(=O)(=O)O)C1OS(=O)(=O)O (stereo not shown) |  |  | human plasma | 128 µg/mL | reference: control | thrombin time prolongation | 0.9 fold |
| CN1CCC[C@]1(C)/C=C/S(=O)(=O)NC(=O)Nc1c2c(cc3c1CCC3)CCC2 |  |  | human, whole blood ex vivo | 12.5 mg twice daily, day 14, 6 h, multiple ascending dose, with: LPS and ATP |  | IL-1β inhibition | 94.7% |
| COC1OC(C)C(OC2OC(C)C(OS(=O)(=O)O)C(OC3OC(C)C(OC4OC(C)C(OS(=O)(=O)O)C(OC5OC(C)C(OC6OC(C)C(OS(=O)(=O)O)C(OC7OC(C)C(OC8OC(C)C(OS(=O)(=O)O)C(OC9OC(C)C(OC%10OC(C)C(OS(=O)(=O)O)C(OS(=O)(=O)O)C%10O)C(OS(=O)(=O)O)C9O)C8O)C(OS(=O)(=O)O)C7O)C6O)C(OS(=O)(=O)O)C5O)C4O)C(OS(=O)(=O)O)C3O)C2O)C(OS(=O)(=O)O)C1O (stereo not shown) |  |  | human plasma | 128 µg/mL | reference: control | thrombin time prolongation | 1 fold |
| COc1cc(O)ccc1CCC(c1ccc(O)cc1)c1cc2c(c(C)c1O)OC(c1ccc(O)cc1)CC2 (mixture of isomers) |  | measured: 15-HEPE | human whole blood | 3 µM, with: Escherichia coli |  | amount | 164 ± 61 pg/mL blood |
| CC(=O)[O-].O.O.[O-]c1ccc(Br)cc1C=NCCN1CCOCC1.[Zn+2] |  | superoxide scavenging |  | 120 µM |  | inhibition | 22.3% |
| COC1CN([C@H]2CC[C@H]([C@@]3(C)Oc4c(Cl)cc(C(=O)NCc5c(SC)cc(C)[nH]c5=O)c(C)c4O3)CC2)C1 |  | RNA-seq, measured: SPP1 | human, whole blood | dose not given, 24 h | reference: pretreatment baseline | log2 fold change | 2.65 |
| Cc1cn(-c2cc(NC(=O)c3cc(C#Cc4cnc5c(Nc6cnn(C)c6)cccn45)c(C)cc3F)cc(C(C)(C)C#N)c2)cn1 |  | platelet aggregation | platelet-rich plasma | 0.1 µM, DMSO 100, with: collagen 2 mg/mL |  | aggregation | 75.9% |
| COC1OC(C)C(OC2OC(C)C(OS(=O)(=O)O)C(OC3OC(C)C(OC4OC(C)C(OS(=O)(=O)O)C(OC5OC(C)C(OC6OC(C)C(OS(=O)(=O)O)C(OC7OC(C)C(OS(=O)(=O)O)C(OS(=O)(=O)O)C7O)C6O)C(OS(=O)(=O)O)C5O)C4O)C(OS(=O)(=O)O)C3O)C2O)C(OS(=O)(=O)O)C1O (stereo not shown) |  |  | human plasma | 128 µg/mL |  | thrombin time | 10.2 ± 0.4 s |
| CC1=CC(=O)c2ccccc2C1=O |  |  | pancreatic islet cells, mouse | 7 µM, 24 h |  | live cells | 34.4% |
| COC1OC(C)C(OC2OC(C)C(OS(=O)(=O)O)C(OC3OC(C)C(OC4OC(C)C(OS(=O)(=O)O)C(OC5OC(C)C(OS(=O)(=O)O)C(OS(=O)(=O)O)C5O)C4O)C(OS(=O)(=O)O)C3O)C2O)C(OS(=O)(=O)O)C1O (stereo not shown) |  |  | human plasma | 128 µg/mL |  | thrombin time | 9.2 s |
| Cc1ncsc1-c1ccc(C(C)NC(=O)C2CC(O)CN2C(=O)C(NC(=O)CCCCCCCCCCN2CCCC(Nc3ncc(Cl)c(Nc4ccccc4S(=O)(=O)C(C)C)n3)C2)C(C)(C)C)cc1 (stereo not shown) | 22Rv1 | RNA-seq, measured: LTO1 mRNA |  | concentration not given | reference: DMSO | log2 fold change | -1.07 |
| COC1OC(C)C(O)C(OC2OC(C)C(O)C(OC3OC(C)C(O)C(OC4OC(C)C(O)C(OC5OC(C)C(O)C(OC6OC(C)C(O)C(OC7OC(C)C(O)C(OC8OC(C)C(O)C(OS(=O)(=O)O)C8OS(=O)(=O)O)C7OS(=O)(=O)O)C6OS(=O)(=O)O)C5OS(=O)(=O)O)C4OS(=O)(=O)O)C3OS(=O)(=O)O)C2OS(=O)(=O)O)C1OS(=O)(=O)O (stereo not shown) |  |  | human plasma | 128 µg/mL | reference: control | thrombin time prolongation | 1 fold |
| O=CCNCCOn1c(=O)n(OCCNCCO)c(=O)n(OCCNCCOn2c(=O)n(OCCNCCO)c(=O)n(OCCNCCO)c2=O)c1=O |  | DPPH scavenging |  | 62.5 µg/mL |  | inhibition | 11.1% |

For quick reference, copied from above:
| Structure (SMILES) | tested on | assay | system | conditions | scale | measurement | result |
| --- | --- | --- | --- | --- | --- | --- | --- |
| Cc1cn(-c2cc(NC(=O)c3cc(C#Cc4cnc5c(Nc6cnn(C)c6)cccn45)c(C)cc3F)cc(C(C)(C)C#N)c2)cn1 |  | platelet aggregation | platelet-rich plasma | 0.1 µM, DMSO 100, with: collagen 2 mg/mL |  | aggregation | 75.9% |
| COC1OC(C)C(OC2OC(C)C(OS(=O)(=O)O)C(OC3OC(C)C(OC4OC(C)C(OS(=O)(=O)O)C(OC5OC(C)C(OC6OC(C)C(OS(=O)(=O)O)C(OC7OC(C)C(OS(=O)(=O)O)C(OS(=O)(=O)O)C7O)C6O)C(OS(=O)(=O)O)C5O)C4O)C(OS(=O)(=O)O)C3O)C2O)C(OS(=O)(=O)O)C1O (stereo not shown) |  |  | human plasma | 128 µg/mL |  | thrombin time | 10.2 ± 0.4 s |
| CC1=CC(=O)c2ccccc2C1=O |  |  | pancreatic islet cells, mouse | 7 µM, 24 h |  | live cells | 34.4% |
| COC1OC(C)C(OC2OC(C)C(OS(=O)(=O)O)C(OC3OC(C)C(OC4OC(C)C(OS(=O)(=O)O)C(OC5OC(C)C(OS(=O)(=O)O)C(OS(=O)(=O)O)C5O)C4O)C(OS(=O)(=O)O)C3O)C2O)C(OS(=O)(=O)O)C1O (stereo not shown) |  |  | human plasma | 128 µg/mL |  | thrombin time | 9.2 s |
